Assay results of several laboratories.
Numbered parts are unrelated; each lists some results of a single study.

Series 1
Target: Histone acetyltransferase KAT6A, both winged helices, GST fusion (KAT6A, Homo sapiens, UniProt Q92794, residues 1-181)
Method: protein binding microarray
Form: double-stranded DNA, one strand shown
Sample: in vitro
Tested at: not given
Setting: 8-mer, flanks averaged, mean of 2 arrays, mostly near background
Baseline: not given
Direction: higher = stronger binding
Construct (chain): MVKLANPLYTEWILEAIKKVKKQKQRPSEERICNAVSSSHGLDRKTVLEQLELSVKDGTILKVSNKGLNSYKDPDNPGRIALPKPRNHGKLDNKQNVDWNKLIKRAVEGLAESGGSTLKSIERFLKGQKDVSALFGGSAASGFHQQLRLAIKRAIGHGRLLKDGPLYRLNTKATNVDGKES
| Strand | E-score |
| --- | --- |
| AAGGTGAG | -0.0571 |
| AGAGAGCC | -0.117 |
| CATATAGA | 0.0219 |
| AATCGTTC | 0.016 |
| GAACCCGA | 0.136 |
| CGACATAC | 0.183 |
| GCTGGATA | -0.127 |

Series 2
Target: RING finger protein unkempt homolog, zinc fingers 1-6, GST-SBP tag (UNK, Homo sapiens, UniProt Q9C0B0, residues 30-357)
UniProt Q9C0B0, sequence (30-357, looked up): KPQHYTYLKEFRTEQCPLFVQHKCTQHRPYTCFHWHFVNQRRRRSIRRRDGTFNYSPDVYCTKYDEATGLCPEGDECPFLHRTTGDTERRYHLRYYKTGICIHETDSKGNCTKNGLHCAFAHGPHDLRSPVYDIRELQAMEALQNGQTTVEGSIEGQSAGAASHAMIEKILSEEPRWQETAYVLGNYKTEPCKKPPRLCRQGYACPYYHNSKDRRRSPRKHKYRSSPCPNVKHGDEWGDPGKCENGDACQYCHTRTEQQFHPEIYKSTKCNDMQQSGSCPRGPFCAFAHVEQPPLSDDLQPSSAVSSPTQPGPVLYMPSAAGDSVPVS
Method: RNA Bind-n-Seq
Form: RNA
Sample: in vitro
Tested at: not given
Setting: RNA with constant flanks, human and mouse sites, ends assumed
Baseline: input RNA pool
Direction: higher = stronger binding
All sequences stand within: GGGAGUUCUACAGUCCGACGAUC … CAACAGAGGAUUGAGCAUCA
| Strand | bound/input enrichment |
| --- | --- |
| UAAUAUAUUUUUCCUACUUGUGGGAAAAGUAUUAUAAGUUUGGUUAAAUUGUCAUGUUUAUAGUUUUUCCAAGUACAUUUGUAACUACAGCAGGCCUUCUUCGUACUGCUGCUGUUGGAC | 0.422 ratio |
| CACGAAACAACCAAAAUGGUAAAGUAAUUCAGAGCGAGGAACGUUUGUUAUAAUUUCUUUCUUUUCAUACCCCCUCACAGUGGAAAAUGCUUCAUUCAUUGGAGGGUCCUGAGAUAGCCC | 0.186 ratio |
| AAAAGGAAACCAACCACCUGCAUGCUGCAGAAGGUUCUUCUCAAUGAAUAUAAUGGCAUCGAUUUACCUGUAGAAAACCCUGCAGAUGGGACCAGGAGCCCAAGUCCUUGUAAAUCCCUA | 0.152 ratio |
| UUUUUUCUUUUUUUCUUUUCUUUUCUUUUUCUUUUUUUUGAAGACUAAUGCAGGAAAGCGUUUUUAAAAAGCCCCUUUCUGUUUGUGAGAGAGUAACAAUUAAAAAAAAUAUUAUGGAGG | 0.409 ratio |
| CGGGCAGUGGACGAGCUGCACAAACUGCUCAAAGAAGCAGGAGAAGCCAACAAAACAAUACAAGAUCAUCUUCUACAAGUGGAAGAAUCUAAAGAUCAGAUGGAAAAAGAAAUGCUUGAG | 0.175 ratio |

Series 3
Target: Interferon regulatory factor 5, full length, phosphomimetic (IRF5, Homo sapiens, UniProt Q13568-2, residues 1-514, K96S/S451D/S453D/S456D/S462D)
Method: protein-binding microarray
Form: double-stranded DNA, one strand shown
Sample: in vitro
Tested at: 250 nM
Setting: 60-bp whole probe
With: salmon DNA 0.4 mg/ml
Baseline: random background probes
Direction: higher = stronger binding
All sequences stand within: GCCTAGCAC … GTCTTGATTCGCTTGACGCTGCTG
| Strand | log fluorescence |
| --- | --- |
| TTAGGTCTCGGACTGGGTGAGTGCTAG | -0.384 z-score |
| TTAGGTTTCGGGACTGGGTTTGTGCTA | 6.06 z-score |
| TTAGGACTGAGTATCGGTTAGTGCTAG | 6.49 z-score |
| GACGGACGGGACTTTCGGGACGTGCTA | 4.32 z-score |
| TTAGGTCTCCTTCACCTTTAGTGCTAG | -0.17 z-score |
| CTAGGTATCCTTATCCTTTAGTGCTAG | -0.078 z-score |

Mixed results
| Substance | target | assay | system | setting | scale | measurement | result |
| --- | --- | --- | --- | --- | --- | --- | --- |
| PhoQ, residues 284 288 289 292 302 303 WVSSAF | PhoP, residues 12 14 15 18 19 SEGLL (Escherichia coli, UniProt P23836) | Sort-seq, item: YFP reporter | E. coli | PhoQ-PhoP variant library, with: 10 µM Mg2+ | baseline: high Mg2+ state, higher = stronger signaling | fold induction | 14 |

Some of these lines once more (series 3):
| Strand | log fluorescence |
| --- | --- |
| TTAGGTCTCGGACTGGGTGAGTGCTAG | -0.384 z-score |
| TTAGGTTTCGGGACTGGGTTTGTGCTA | 6.06 z-score |
